Measured values of several laboratories.
Lines come from different studies, so protocols differ.
WRKY40 full length assumed: WRKY40 full length assumed (Arabidopsis thaliana, UniProt Q9SAH7)
Chain of UniProt Q9SAH7 (whole entry, looked up): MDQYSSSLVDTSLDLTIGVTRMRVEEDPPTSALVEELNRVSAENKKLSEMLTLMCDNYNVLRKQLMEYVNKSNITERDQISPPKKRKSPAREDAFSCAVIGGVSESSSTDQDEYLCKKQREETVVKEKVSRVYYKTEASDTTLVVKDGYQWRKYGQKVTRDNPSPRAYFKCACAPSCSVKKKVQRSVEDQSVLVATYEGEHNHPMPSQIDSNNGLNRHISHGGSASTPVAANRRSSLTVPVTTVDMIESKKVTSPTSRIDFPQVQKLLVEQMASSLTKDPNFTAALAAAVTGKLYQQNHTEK
CP29A: CP29A 255-334 (Arabidopsis thaliana, UniProt Q43349)
Chain of UniProt Q43349 (whole entry, looked up): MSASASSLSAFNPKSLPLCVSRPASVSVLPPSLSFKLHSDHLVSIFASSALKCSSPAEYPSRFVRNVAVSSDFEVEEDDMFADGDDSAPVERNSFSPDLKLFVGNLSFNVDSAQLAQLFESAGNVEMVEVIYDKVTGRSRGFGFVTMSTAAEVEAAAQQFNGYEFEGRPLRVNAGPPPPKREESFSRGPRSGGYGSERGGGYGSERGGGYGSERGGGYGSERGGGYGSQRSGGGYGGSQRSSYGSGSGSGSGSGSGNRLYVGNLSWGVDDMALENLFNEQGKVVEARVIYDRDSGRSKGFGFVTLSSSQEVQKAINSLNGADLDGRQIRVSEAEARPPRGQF
U2AF2: U2AF2 148-342 (Homo sapiens, UniProt P26368)
Chain of UniProt P26368 (whole entry, looked up): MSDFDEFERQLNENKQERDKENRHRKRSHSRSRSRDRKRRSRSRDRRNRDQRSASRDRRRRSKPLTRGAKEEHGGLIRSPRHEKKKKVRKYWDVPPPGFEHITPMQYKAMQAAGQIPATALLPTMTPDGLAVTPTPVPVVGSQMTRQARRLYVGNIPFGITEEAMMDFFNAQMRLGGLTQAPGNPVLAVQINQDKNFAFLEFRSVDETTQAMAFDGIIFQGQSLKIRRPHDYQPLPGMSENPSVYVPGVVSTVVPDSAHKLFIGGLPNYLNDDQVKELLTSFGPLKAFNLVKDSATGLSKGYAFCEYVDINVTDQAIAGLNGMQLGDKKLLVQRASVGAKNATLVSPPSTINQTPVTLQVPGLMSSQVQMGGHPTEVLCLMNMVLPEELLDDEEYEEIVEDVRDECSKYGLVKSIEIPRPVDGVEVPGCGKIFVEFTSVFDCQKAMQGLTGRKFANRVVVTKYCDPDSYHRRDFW
SART3: SART3 697-786 (Homo sapiens, UniProt Q15020)
Chain of UniProt Q15020 (whole entry, looked up): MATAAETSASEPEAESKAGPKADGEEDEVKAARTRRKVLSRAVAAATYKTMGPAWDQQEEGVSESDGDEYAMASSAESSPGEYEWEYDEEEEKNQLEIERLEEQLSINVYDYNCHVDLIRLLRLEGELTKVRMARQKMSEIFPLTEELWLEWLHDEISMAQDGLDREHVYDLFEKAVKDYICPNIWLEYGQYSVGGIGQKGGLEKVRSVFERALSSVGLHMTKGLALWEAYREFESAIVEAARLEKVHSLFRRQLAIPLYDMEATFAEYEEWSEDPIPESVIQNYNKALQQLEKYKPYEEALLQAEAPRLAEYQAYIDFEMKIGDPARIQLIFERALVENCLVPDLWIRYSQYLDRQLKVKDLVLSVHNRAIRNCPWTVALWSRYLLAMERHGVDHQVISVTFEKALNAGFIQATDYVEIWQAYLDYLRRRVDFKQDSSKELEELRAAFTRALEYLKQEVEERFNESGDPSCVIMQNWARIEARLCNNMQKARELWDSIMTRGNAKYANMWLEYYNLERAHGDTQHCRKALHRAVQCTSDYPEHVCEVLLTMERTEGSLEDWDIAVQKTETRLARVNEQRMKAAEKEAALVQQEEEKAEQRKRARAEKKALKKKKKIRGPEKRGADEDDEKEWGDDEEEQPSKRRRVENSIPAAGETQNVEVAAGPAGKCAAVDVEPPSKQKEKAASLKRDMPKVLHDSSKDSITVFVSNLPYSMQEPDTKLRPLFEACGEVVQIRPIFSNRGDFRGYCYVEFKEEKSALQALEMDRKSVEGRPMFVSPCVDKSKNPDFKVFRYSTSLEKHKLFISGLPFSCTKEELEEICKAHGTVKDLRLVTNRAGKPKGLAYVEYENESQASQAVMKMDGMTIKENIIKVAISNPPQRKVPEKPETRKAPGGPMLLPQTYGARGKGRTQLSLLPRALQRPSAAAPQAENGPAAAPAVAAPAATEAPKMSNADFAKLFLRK
WT1: WT1 323-438 (Homo sapiens, UniProt P19544)
Chain of UniProt P19544 (whole entry, looked up): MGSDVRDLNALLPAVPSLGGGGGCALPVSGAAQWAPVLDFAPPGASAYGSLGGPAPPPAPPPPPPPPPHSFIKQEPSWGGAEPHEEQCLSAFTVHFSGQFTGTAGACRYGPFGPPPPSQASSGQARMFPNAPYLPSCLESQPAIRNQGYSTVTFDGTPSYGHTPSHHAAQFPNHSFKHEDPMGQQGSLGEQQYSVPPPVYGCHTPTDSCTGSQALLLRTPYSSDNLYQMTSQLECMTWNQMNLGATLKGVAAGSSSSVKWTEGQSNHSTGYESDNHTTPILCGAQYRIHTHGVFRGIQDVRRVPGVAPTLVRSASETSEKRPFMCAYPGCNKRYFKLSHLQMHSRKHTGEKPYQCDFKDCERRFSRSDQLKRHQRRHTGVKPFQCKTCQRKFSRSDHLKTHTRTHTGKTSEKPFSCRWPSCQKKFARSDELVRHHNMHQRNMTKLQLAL
Chain of UniProt P05846 (whole entry, looked up): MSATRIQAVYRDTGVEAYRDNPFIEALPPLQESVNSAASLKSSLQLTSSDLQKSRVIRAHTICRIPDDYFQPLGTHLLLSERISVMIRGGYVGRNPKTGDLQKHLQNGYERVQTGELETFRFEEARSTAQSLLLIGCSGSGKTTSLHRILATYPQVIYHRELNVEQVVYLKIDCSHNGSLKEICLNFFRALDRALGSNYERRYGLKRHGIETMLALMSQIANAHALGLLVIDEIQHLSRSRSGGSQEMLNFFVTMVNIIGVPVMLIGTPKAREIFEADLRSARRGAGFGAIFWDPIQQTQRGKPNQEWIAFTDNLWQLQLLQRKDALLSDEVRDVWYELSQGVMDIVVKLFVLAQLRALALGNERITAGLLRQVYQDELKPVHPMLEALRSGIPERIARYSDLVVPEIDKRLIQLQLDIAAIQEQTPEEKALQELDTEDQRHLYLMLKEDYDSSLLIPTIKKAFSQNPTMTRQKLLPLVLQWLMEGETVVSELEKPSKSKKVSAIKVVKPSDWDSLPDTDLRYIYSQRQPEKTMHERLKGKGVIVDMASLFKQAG
Chain of UniProt Q9H165 (whole entry, looked up): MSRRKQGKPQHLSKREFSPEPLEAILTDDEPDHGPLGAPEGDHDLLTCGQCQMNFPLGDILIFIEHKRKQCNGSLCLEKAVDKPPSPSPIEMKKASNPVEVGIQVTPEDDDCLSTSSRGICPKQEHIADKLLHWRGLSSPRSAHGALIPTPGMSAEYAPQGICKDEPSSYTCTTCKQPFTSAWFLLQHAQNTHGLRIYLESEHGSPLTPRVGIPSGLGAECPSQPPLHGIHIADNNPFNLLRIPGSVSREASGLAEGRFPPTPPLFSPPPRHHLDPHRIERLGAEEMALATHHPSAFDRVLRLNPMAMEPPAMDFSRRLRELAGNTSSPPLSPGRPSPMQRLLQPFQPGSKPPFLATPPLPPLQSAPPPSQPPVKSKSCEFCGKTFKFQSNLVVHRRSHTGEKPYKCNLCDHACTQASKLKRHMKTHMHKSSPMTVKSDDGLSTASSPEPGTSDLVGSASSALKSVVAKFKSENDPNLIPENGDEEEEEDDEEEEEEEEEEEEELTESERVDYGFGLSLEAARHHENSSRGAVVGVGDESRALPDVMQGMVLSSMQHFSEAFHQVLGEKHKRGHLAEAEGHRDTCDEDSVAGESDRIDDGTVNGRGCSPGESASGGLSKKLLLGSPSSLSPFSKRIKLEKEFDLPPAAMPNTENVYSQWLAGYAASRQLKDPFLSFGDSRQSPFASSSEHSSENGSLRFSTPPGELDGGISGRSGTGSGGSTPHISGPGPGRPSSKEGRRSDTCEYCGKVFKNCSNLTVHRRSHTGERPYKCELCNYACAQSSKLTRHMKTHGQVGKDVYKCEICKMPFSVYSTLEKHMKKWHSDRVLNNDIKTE
Chain of UniProt Q04206 (whole entry, looked up): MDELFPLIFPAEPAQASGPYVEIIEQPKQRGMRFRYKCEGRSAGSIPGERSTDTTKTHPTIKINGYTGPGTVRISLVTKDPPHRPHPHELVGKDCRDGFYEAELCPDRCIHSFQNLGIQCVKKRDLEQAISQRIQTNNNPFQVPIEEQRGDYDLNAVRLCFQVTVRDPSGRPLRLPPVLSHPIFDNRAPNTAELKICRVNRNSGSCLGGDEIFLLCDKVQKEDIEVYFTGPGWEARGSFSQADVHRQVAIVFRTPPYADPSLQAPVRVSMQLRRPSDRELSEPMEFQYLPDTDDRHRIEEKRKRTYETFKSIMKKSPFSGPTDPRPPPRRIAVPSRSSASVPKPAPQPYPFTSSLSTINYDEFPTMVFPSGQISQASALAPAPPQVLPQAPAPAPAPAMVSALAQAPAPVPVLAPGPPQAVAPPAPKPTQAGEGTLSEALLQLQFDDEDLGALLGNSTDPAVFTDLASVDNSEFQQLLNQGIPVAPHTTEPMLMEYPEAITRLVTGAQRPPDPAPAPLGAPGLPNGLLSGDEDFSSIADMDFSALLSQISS
Chain of UniProt P07676 (whole entry, unmodified, looked up): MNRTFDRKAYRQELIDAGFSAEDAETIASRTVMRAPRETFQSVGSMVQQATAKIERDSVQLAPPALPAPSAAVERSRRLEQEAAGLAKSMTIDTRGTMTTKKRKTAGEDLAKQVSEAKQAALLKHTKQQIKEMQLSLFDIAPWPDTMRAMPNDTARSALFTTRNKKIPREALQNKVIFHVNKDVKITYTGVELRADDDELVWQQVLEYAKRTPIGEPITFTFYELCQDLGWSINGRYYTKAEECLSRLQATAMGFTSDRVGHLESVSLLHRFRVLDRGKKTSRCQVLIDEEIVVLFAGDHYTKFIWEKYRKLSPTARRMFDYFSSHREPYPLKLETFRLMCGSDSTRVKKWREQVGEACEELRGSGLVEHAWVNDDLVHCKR

TAGTTTCAGAACGTCTCTTGACTGCAAAATCCAGTTTGTCCACAAGTATT (dsDNA)
binding (WRKY23 (Oryza sativa, UniProt Q7E0X1); EMSA; double-stranded DNA, one strand shown): binds

CTCGTCGTGCGCCAACTGCGAGCGAGGGAG (dsDNA)
binding (MYB2 full length assumed (Oryza sativa, UniProt Q10MB4); competition; double-stranded DNA, one strand shown): binds

CTGAAGTTTGGTCAAAATAATACGATGAATTTAATATATAAGAGACAAAATTGTTATTGTCGTTTAGGTGGTATCCATATTTCAATATAGTTTGTGTGAATACAGATATAAAAATGGTTATTGTTGTGTATATGATGCAGTTG (dsDNA)
binding (WRKY40 full length assumed; EMSA; double-stranded DNA, one strand shown): no binding

AGCGUGCCGUGCAACAACAUUACAAUUUACAAUCCACCAUGG (ssRNA)
binding (ECD 150-438 (Homo sapiens, UniProt O95905); EMSA; RNA): no binding

GGGTTCCCGTTGCCACCGGGGTTCCCGTTGCCACCGGGGTTCCCGTTGCCACCG (dsDNA)
binding (Transcription factor MYB80 full length assumed (Triticum aestivum, UniProt A0A3B6C8C3); EMSA; double-stranded DNA, one strand shown): binds

AACCTCTTTTGTCATTTTGTGTCATAA (dsDNA)
binding (NLP3 full length assumed (Oryza sativa, UniProt Q5NB82); EMSA; double-stranded DNA, one strand shown): binds

TCCCTGTCAATCTGATCGACACACACCTCT (dsDNA)
binding (GATA15 full length assumed (Oryza sativa, UniProt Q6L5E5); EMSA; double-stranded DNA, one strand shown): binds

CTGTTTTATTCACTTGATCTTCTTAATCTTTTAAATTGCCTATCTTTTGCTATGTTTTTGTTACAATTTAAATTGACAAGTACTTAGAAAAACAAACAAAAATGATATCTCTGTTCCATCTTAGATTATTCGTTTCTTATTTCTCTTAATATATATTTTTGAACACGCTTATTTCTCTTATATATGTTGCAATATTC (dsDNA)
binding (WRKY40 full length assumed; EMSA; double-stranded DNA, one strand shown): binds

ATCTGGGAATTCCCAGAT (dsDNA; blunt/self-complementary palindrome)
binding (RELA 19-191 (Homo sapiens, UniProt Q04206); NMR; double-stranded DNA, one strand shown; NaCl 50 mM): binds

TGAACAACCCCCCACTAG (dsDNA)
binding (Auxin response factor 1-610 (Capsicum annuum, UniProt A0A1U8F1G4); EMSA; double-stranded DNA, one strand shown): no binding

AAAAAAAAAAAAAAAAAAAAAAAAAAAAAAAAAAAAAAAAAAAA (ssRNA)
binding (Dentin sialophosphoprotein-like protein 1-828 (Arabidopsis thaliana, UniProt Q9FGR1); EMSA; RNA): no binding

DNA 1 ACACTACAATGTTGCAAT / DNA 2 GTATTGCAACATTGTAGT (dsDNA (Drosophila melanogaster); 16 bp, 5' 2 nt overhangs)
binding (SRY 60-128 (Homo sapiens, UniProt Q05066); EMSA; double-stranded DNA): binds

CTGGGGGAGTATTGCGGAGGAAA (structured DNA; 5' thiol, 3' methylene blue)
binding (INS 25-54;90-110 (Homo sapiens); square wave voltammetry; folded DNA; 20 µM): no binding

AGGATCAGCCATTTGGCACACCAAGTGGTCCAAATGATGATTTAGG (dsDNA)
binding (BZR1 1-298 (Oryza sativa, UniProt Q7XI96); EMSA; double-stranded DNA, one strand shown): binds

CACAATAACCACTTCCCTAATAATAAAATTTTTTTATTTTTATTTTGGTTCAAAGGCTCACGATGTTCGCCTAATAAAACGAAGTCGCCTATCGGCTCCGCTGATTTTTATATATCACTCTCGGGGCTTTTGGTGTACTATTGTCTTTTGTAATAGCAAGGACACAAAAAGGGTACTCTTCGAGTTTCCTTTTTGACC (dsDNA)
binding (ihfA/ihfB 1-98; 1-95 (Aggregatibacter actinomycetemcomitans); EMSA; double-stranded DNA, one strand shown): no binding

GGTCCAGCTGAAGCCATCTAGTCAACGCTTACATTTACACTTGT (dsDNA)
binding (WRKY domain-containing protein 1-700 (Vitis vinifera, UniProt A0ABY9BSD8); EMSA; double-stranded DNA, one strand shown): binds

DNA 1 GCTTGACCAATGC / DNA 2 GCATTGGTCAAG (dsDNA; 5' 1-nt overhang)
binding (BCL11A 730-835 (Homo sapiens, UniProt Q9H165); X-ray crystallography; double-stranded DNA; together with: Zn2+): binds

DNA 1 GCAGCCAACTAAACTA / DNA 2 TAGTTTAGTTGGCTG (dsDNA; 5' 1-nt overhang)
binding (TnsC 1-503 (Escherichia coli, UniProt P05846); EMSA; double-stranded DNA; together with: ATP): binds

TTTTTT (ssDNA)
binding (CP29A; NMR titration; single-stranded DNA): binds

GUUGUUUUU (ssRNA)
Kd (U2AF2; sequencing of bound RNA; RNA; motif only): 12.7 µM

UACAGAG (ssRNA)
binding (SART3; ITC; RNA): no binding

TTTTTTTTTTTTTTTTTTTTTTTTTTTTTTTTTTTTTTTTTTTTTTTTTTTTTTTTTTTTTTTTT (ssDNA)
binding (yoaA/holC 1-636; 1-147 (Escherichia coli); EMSA; single-stranded DNA; together with: ATPγS): binds

GGAATTGGTCAGTGCTAATCCTTGGTCAGTGCAGCTA (dsDNA)
binding (him-8 full length assumed (Caenorhabditis elegans, UniProt O18068); competition pull-down; double-stranded DNA, one strand shown): binds

GCTAGTGCTAGGTGCGTGAAAACGTCGCCCACGTTTTCTAAAACCGGA (dsDNA)
binding (NAC067 1-276 (Oryza sativa, UniProt Q7EZT1); EMSA; double-stranded DNA, one strand shown): binds

CGGAAAGTCCAAGGCAACATGTATCTTAATATCTTGTCTT (dsDNA)
binding (EIL1A 1-350 (Oryza sativa, UniProt Q10M41); EMSA; double-stranded DNA, one strand shown): no binding

DNA 1 CTCGAGGAATTCGGATCCGAATTCCTCGAGGCGCTCC / DNA 2 CTCGAGGAATTCGGATCCGAATTCCTCGAGGCGCTCC (dsDNA; 3' 7-nt overhangs, palindromic)
binding (sduA 171-380 (Bacillus cereus, UniProt B7HFR2); fluorescence polarization; double-stranded DNA; together with: Mg2+ 5 mM): no binding

CCGCCGCTCACGTGGCGAACT (dsDNA)
binding (Clk 1-71 S13D (Drosophila melanogaster, UniProt O61735); BLI; double-stranded DNA, one strand shown): no binding

ACCAAGCGGGATTCGGAGCCGCCGCCGCCGCCG (dsDNA; blunt)
binding (WT1; EMSA; double-stranded DNA, one strand shown): no binding

GACAAAAGATGTTGACCTTCACGCCTCTCTTCTTAGACCCCACGCGCCACACTCTCACGGTGAGAACATAAATATCAATCTCTCTTTTACCGCCTCCTACCCATTTATCTCTCTCTTTCTCAAAACCTTTCAGTCAAAATTCTCC (dsDNA)
binding (WRKY60 full length assumed (Arabidopsis thaliana, UniProt Q9SK33); EMSA; double-stranded DNA, one strand shown): no binding

TCTTGTATTTTAGGAATCTACCACAATTTTTTC (dsDNA (Drosophila melanogaster); blunt)
binding (sv (Drosophila melanogaster, UniProt Q59DN9); competition; double-stranded DNA, one strand shown): no binding

DNA 1 ATACCAGCTTATTCAATT / DNA 2 ATTGCTCCTCAGCAATTGAATAAGCT (dsDNA; 13 bp duplex, 5' overhangs, 5'-NH2)
binding (AFP 19-609 (Homo sapiens, UniProt P02771); magnetic bead strand displacement; double-stranded DNA): no binding

ACCAAGCGGGATGCGGAGCCGCCGCCGCCGCTG (dsDNA; blunt)
binding (WT1; EMSA; double-stranded DNA, one strand shown): no binding

AGACTTCTCAAGACCGAACGTGCGCGCAGATTTGTCGTACGTATAGTACT (dsDNA)
binding (Beta-amylase 1-651 (Zea mays, UniProt A0A2D0ZCW9); EMSA; double-stranded DNA, one strand shown): binds

GGGCCGTCCAGAAGCAAAAAAAAAAAACTTCTCCTCCT (dsDNA)
binding (HSFA4D full length assumed (Oryza sativa, UniProt Q93VB5); EMSA; double-stranded DNA, one strand shown): no binding

TATGAGTAAAATAAAAATGGATGGTAATT (dsDNA)
binding (Uncharacterized protein 1-360 (Prunus persica, UniProt M5W9R3); competition; double-stranded DNA, one strand shown; together with: cold mutant probe): no binding

ACCAAGCGGGATGCTGAGCCGCCGCCGCCGCCG (dsDNA; blunt)
binding (WT1; EMSA; double-stranded DNA, one strand shown): no binding

AGAUU (ssRNA)
binding (SART3; ITC; RNA): no binding

AGGCAAGAUGCUGGCAUAGCUGUUGAACUGGGAACCUGCUAUGCCAACAUAUUGCCAU (structured RNA)
binding (Dicer/TRBP (Homo sapiens); EMSA; folded RNA): binds

UAUUCCUUC (ssRNA)
Kd (U2AF2; sequencing of bound RNA; RNA; motif only): 0.26 µM

AAAAAAGAACCTCTGTCATTGTACAGAAAAATCGTAATAACCC (dsDNA)
binding (EIN3 1-628 (Arabidopsis thaliana, UniProt O24606); EMSA; double-stranded DNA, one strand shown): no binding

TCGGTACCCGTGGATC (dsDNA)
binding (protein full length assumed E367A (Bacillus pumilus, UniProt A3FMN7); EMSA; double-stranded DNA, one strand shown): binds

TAAAGTGTCGTTGGCCTTAACAACCAGACTAACATTTTTT (dsDNA)
binding (Transcription factor 1-552 (Triticum aestivum, UniProt G9DR80); EMSA; double-stranded DNA, one strand shown): binds

CCTGCGGTATTGACACTTGAGGGGCGCGACTACTGACAGATGAGGGGCGCGATCCTTGACACTTGAGGGGCAGAGTGATGACAGATGAGGGGCGCACCTATTGACATTTGAGGGGCTGTCCACAGGCAG (dsDNA)
binding (trfA 98-382 G254D/S267L/R347E (Escherichia coli, UniProt P07676); SPR; double-stranded DNA, one strand shown): no binding

colistin
MIC (Acinetobacter baumannii; broth microdilution; clinical isolate RKI-No_584/16): ≤ 0.5 µg/mL

GAGCTGCAAGTGGATATTTGGACCTCTTTGAGGTCTTCGTTGGAAACGGGATTTCCTCATATAATGTTACACAGAAGAATTCTCAGTAACTTATTTGTGGTGTGTGTATTCAACTCACAGAGGTGAACCTTCCTTCAGAAAGAGCAGATTTGAAACACTCTTTTTGTACCC (dsDNA)
binding (CENP-I/CENP-H/CENP-K 57-281 / 1-247 / 1-269 K243A/K263A/K270A/R279A/N280A (Homo sapiens); EMSA; double-stranded DNA, one strand shown): no binding

AGAGACTATTGACCAGTGAGTC (dsDNA (Saccharum))
binding (WRKY2 full length assumed (Saccharum hybrid, UniProt A0A5J6RV71); EMSA; double-stranded DNA, one strand shown): binds

GATTTTATTTCTTTTATGTTTATGTGTCATCTTGAAACTACCACCGAATGGC (dsDNA)
binding (O2 full length assumed (Zea mays, UniProt P12959); EMSA; double-stranded DNA, one strand shown): binds

GTTACT (ssDNA)
binding (CP29A; NMR titration; single-stranded DNA): binds

TTATTUUUAAGGATTTATTTATTTA (ssDNA; 5-bromo-dU position 6, dU 7-8)
binding (APOBEC3G 1-384 (Homo sapiens, UniProt Q9HC16); UV cross-linking, MS, SDS-PAGE; single-stranded DNA): binds

For quick reference, copied from above:
CCTGCGGTATTGACACTTGAGGGGCGCGACTACTGACAGATGAGGGGCGCGATCCTTGACACTTGAGGGGCAGAGTGATGACAGATGAGGGGCGCACCTATTGACATTTGAGGGGCTGTCCACAGGCAG (dsDNA)
binding (trfA 98-382 G254D/S267L/R347E (Escherichia coli, UniProt P07676); SPR; double-stranded DNA, one strand shown): no binding

colistin
MIC (Acinetobacter baumannii; broth microdilution; clinical isolate RKI-No_584/16): ≤ 0.5 µg/mL

TGAACAACCCCCCACTAG (dsDNA)
binding (Auxin response factor 1-610 (Capsicum annuum, UniProt A0A1U8F1G4); EMSA; double-stranded DNA, one strand shown): no binding

GGAATTGGTCAGTGCTAATCCTTGGTCAGTGCAGCTA (dsDNA)
binding (him-8 full length assumed (Caenorhabditis elegans, UniProt O18068); competition pull-down; double-stranded DNA, one strand shown): binds

AGAUU (ssRNA)
binding (SART3; ITC; RNA): no binding
